Assay results of several laboratories.
Lines come from different studies, so protocols differ. ± gives the spread as reported.
Target: Mitogen-activated protein kinase 8 (MAPK8, Homo sapiens, UniProt P45983)
UniProt P45983, sequence (whole entry, looked up): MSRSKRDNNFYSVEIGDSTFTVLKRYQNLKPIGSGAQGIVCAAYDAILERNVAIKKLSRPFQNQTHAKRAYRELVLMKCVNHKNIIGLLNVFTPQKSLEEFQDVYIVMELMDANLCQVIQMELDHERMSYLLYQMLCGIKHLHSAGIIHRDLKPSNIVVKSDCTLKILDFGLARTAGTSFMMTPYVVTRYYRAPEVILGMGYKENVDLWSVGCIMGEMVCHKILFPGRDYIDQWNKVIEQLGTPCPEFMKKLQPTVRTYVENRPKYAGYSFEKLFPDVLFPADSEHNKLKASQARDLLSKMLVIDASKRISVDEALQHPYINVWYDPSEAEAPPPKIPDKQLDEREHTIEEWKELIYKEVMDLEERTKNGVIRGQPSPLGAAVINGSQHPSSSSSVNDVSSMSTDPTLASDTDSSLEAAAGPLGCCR

CC(C)C[C@H](NC(=O)[C@H](CC(N)=O)NC(=O)[C@H](CC(C)C)NC(=O)[C@@H](NC(=O)[C@@H](NC(=O)[C@@H]1CCCN1C(=O)[C@H](CCCNC(=N)N)NC(=O)[C@H](CCCCN)NC(=O)[C@@H]1CCCN1C(=O)[C@H](CCCNC(=N)N)NC(=O)[C@H](CCCNC(=N)N)NC(=O)[C@H](CCCNC(=N)N)NC(=O)[C@H](CCCNC(=N)N)NC(=O)[C@H](CCC(N)=O)NC(=O)[C@H](CCCNC(=N)N)NC(=O)[C@H](CCCNC(=N)N)NC(=O)[C@H](CCCCN)NC(=O)[C@H](CCCCN)NC(=O)[C@H](CCCNC(=N)N)NC(=O)CNC(=O)[C@@H](N)Cc1ccc(O)cc1)[C@@H](C)O)[C@@H](C)O)C(=O)N[C@@H](Cc1ccccc1)C(N)=O gave an IC50 of 1.1 ± 0.1 µM (enzyme activity, inhibitor).
For Cc1cc(NC(=O)c2cccc(-n3cc(NC(=O)Nc4ccccc4)cn3)c2)ccn1, the IC50 was 1.01 µM (enzyme activity, inhibitor, TR-FRET).
With CC(C)CN(CC(=O)NCCCCCCNC(=O)c1ccc(-c2n[nH]c3ccccc23)cc1)C(=O)CNC(=O)C1COc2ccccc2O1 (stereo not drawn) the IC50 was 0.164 µM (enzyme activity, inhibitor).
With COC(=O)[C@@]1(C)C=C(C(=O)NCc2cccc(C(=O)Nc3ccc(Nc4nccc(-c5cccnc5)n4)c(C)c3)c2)C(=O)CC1 the EC50 was 1.06 ± 0.15 µM (target engagement, NanoBRET; HEK293; 2 h, together with: tracer K-5).
COC(=O)[C@]1(C)C=C(C(=O)OC(C)(C)C)C(=O)CC1 gave a Ki of 6.5 µM (ligand displacement, FP).
CC[C@H](C)[C@H](NC(=O)[C@@H]1CCCN1C(=O)[C@@H](NC(=O)[C@H](CC(N)=O)NC(=O)[C@H](CC(C)C)NC(=O)[C@H](CO)NC(=O)[C@H](CC(C)C)NC(=O)[C@H](CCCCN)NC(=O)[C@H](CCCNC(=N)N)NC(=O)[C@H](CCCNC(=N)N)NC(=O)[C@H](CCCNC(=N)N)NC(=O)[C@H](CO)NC(=O)[C@@H]1CCCN1C(=O)[C@H](CO)NC(=O)[C@H](C)NC(=O)[C@@H](N)Cc1ccc(O)cc1)[C@@H](C)CC)C(=O)O has an IC50 of 1.1 µM (kinase activity, inhibitor, SOX fluorogenic; pH 7.5, together with: ATP 1 mM).
CC(C)(C)OC(=O)C1=C[C@@](C)(C(=O)OCC#Cc2ccncc2)CCC1=O has a Ki of 2.7 µM (ligand displacement, FP).
The IC50 of CC(C)C[C@H](NC(=O)[C@H](CC(N)=O)NC(=O)[C@H](CC(C)C)NC(=O)[C@@H](NC(=O)[C@@H](NC(=O)[C@@H]1CCCN1C(=O)[C@H](CCCNC(=N)N)NC(=O)[C@H](CCCCN)NC(=O)[C@@H]1CCCN1)[C@@H](C)O)[C@@H](C)O)C(=O)N[C@@H](Cc1ccccc1)C(N)=O is reported as 1 ± 0.05 µM (kinase activity, inhibitor, radiometric; pH 7.5, 30 °C, together with: GST-c-Jun substrate).
The IC50 of Cc1cc(NC(=O)c2cccc(-n3cc(NC(=O)Nc4ccc(F)cc4)cn3)c2)ccn1 is reported as 1.15 µM (enzyme activity, inhibitor, TR-FRET).
COC(=O)C1(Cc2ccccc2)C=C(C(=O)OC(C)(C)C)C(=O)CC1 (stereo not drawn) has a Ki of 4.8 µM (ligand displacement, FP).
CC(C)C[C@@H](NC(=O)[C@@H](Cc1ccccc1)NC(=O)[C@H]1CCCN1C(=O)[C@@H](CCC(N)=O)NC(=O)[C@H](NC(=O)[C@H]1CCCN1C(=O)[C@@H](CCCNC(=N)N)NC(=O)[C@@H](CO)NC(=O)[C@@H](CCC(N)=O)NC(=O)[C@@H](CC(=O)O)NC(=O)[C@H](N)[C@H](C)O)C(C)C)C(=O)N[C@H](CC(N)=O)C(=O)N[C@H](CC(C)C)C(=O)N[C@@H](C(=O)N[C@@H](C(=O)N1CCC[C@@H]1C(=O)N[C@H](CCCNC(=N)N)C(=O)N[C@H](CCCCN)C(=O)N1CCC[C@@H]1C(=O)N[C@H](CCCNC(=N)N)C(N)=O)[C@H](C)O)[C@H](C)O has an IC50 of 2200 ± 25 µM (kinase activity, inhibitor, radiometric; pH 7.5, 30 °C, together with: GST-c-Jun substrate).
For CC(C)C[C@H](NC(=O)[C@H](CCCCN)NC(=O)[C@H](C)NC(=O)[C@H](CCCNC(=N)N)NC(=O)[C@H](CCCNC(=N)N)NC(=O)[C@H](Cc1c[nH]cn1)NC(=O)[C@H](CCCCN)NC(=O)[C@H](CCC(=O)O)NC(=O)[C@H](C)NC(=O)[C@@H](N)Cc1ccc(O)cc1)C(=O)N[C@@H](CCCNC(=N)N)C(=O)N[C@@H](CC(C)C)C(=O)N[C@@H](Cc1ccc(O)cc1)C(=O)N[C@@H](CC(C)C)C(=O)N[C@@H](CCC(=O)O)C(=O)N[C@@H](CCC(N)=O)C(=O)O, the IC50 was 1.1 µM (kinase activity, inhibitor, SOX fluorogenic; pH 7.5, together with: ATP 1 mM).

Repeated from above:
With COC(=O)[C@@]1(C)C=C(C(=O)NCc2cccc(C(=O)Nc3ccc(Nc4nccc(-c5cccnc5)n4)c(C)c3)c2)C(=O)CC1 the EC50 was 1.06 ± 0.15 µM (target engagement, NanoBRET; HEK293; 2 h, together with: tracer K-5).
